Published values pooled from the literature.
± gives the spread as reported.

CN(C)C(=O)Cn1cc(-c2ccc(-c3cncc4ccncc34)cc2)cn1
CD33 surface level (primary AML cells; flow cytometry; concentration not given): no effect

Cc1n[nH]c(C)c1CCOC(=O)c1cccc2c1oc(=O)n2C
IC50 (WI-38; cytotoxicity): > 100000 nM

COC(=O)[C@@]1(C)C=C(C(=O)Nc2cccc(C(=O)NC34CC(Nc5nccc(-c6cccnc6)n5)(C3)C4)c2)C(=O)CC1
AP1 reporter activity (HEK293 AP1 reporter cells; reporter gene, inhibitor, luciferase reporter; 1 µM, 6 h, unit not given, with: PMA; baseline: PMA-stimulated): 0.795

Cc1ccc(NC(=O)c2ccc(CN3CCC(N(C)C)C3)c(C(F)(F)F)c2)cc1N1Cc2cnc(Nc3cnn(C)c3)nc2N(C)C1=O (centres unmarked)
GI50 (Huh-7 (FGFR4 overexpressing); cell proliferation, CellTiter-Glo; 72 h): 21 ± 20 nM

CCCCCCCCCCCCCC[C@@H](O)[C@@H](O)[C@H](CO[C@H]1O[C@H](CO)[C@H](O)[C@H](O)[C@H]1O)NC(=O)CCCCCCCc1ccc(-c2ccccc2)cc1
IFN-γ/IL-4 ratio (human Vα24+ NKT cells; agonist; 10 ng/mL, 24 h, with: CD1d-transfected HeLa cells; baseline: α-GalCer): 0.3 ± 0.01

CCOc1ccc(S(=O)(=O)NC(=O)Cc2ccc(I)cc2)cc1Br
inhibition (THP-1; cGAMP level, item: cGAMP; cell lysate; 100 µM): 72%

Cc1nn(C)c2c(C(C(=O)O)N3CC(OCCCCc4ccc5c(n4)NCCC5)C3)cccc12 (centres unmarked)
ILK phosphorylation (PAH PASMCs; Western blot): no effect

CCCCCCCCCCCCCC[C@@H](O)[C@@H](O)[C@H](CO[C@H]1O[C@H](CO)[C@H](O)[C@H](O)[C@H]1O)NC(=O)CCCCCCCCCCc1ccccc1
IFN-γ secretion (human Vα24+ NKT cells; agonist, ELISA; 10 ng/mL, 24 h, unit not given, with: CD1d-transfected HeLa cells; baseline: α-GalCer): 1.22 ± 0.08

O=C1Nc2cccc(C#CC3(O)CCNCC3)c2/C1=C/c1cc2ccccc2[nH]1
invadopodia formation (C8161.9 lacking LIC2; 100 nM; baseline: DMSO): no effect

CN1CCN(c2cc(C(=O)Nc3ccc4c(c3)-c3c(c(C(N)=O)nn3-c3ccc(F)cc3)CC4)c(Cl)cn2)CC1
IRAK-1 degradation (RA synovial fibroblasts; Western blot; concentration not given, 30 min pretreatment, IL-1β for 10 min, with: IL-1β 1 ng/mL): no effect

Cc1ccccc1C(C(=O)NC1CCCCC1)N(C(=O)Cn1ccnc1C)c1cccc([125I])c1 (racemic)
uptake ratio (HCT-116 IDH1 R132H/WT; cell uptake; baseline: mutant over wild-type cells): 1.3 to 1.5 fold

O=C(Nc1ccc2cc(NC(=O)C(F)(F)F)nc(Br)c2c1)C(F)(F)F
protein level (LX-2; western blot, item: α-SMA; concentration not given, with: TGF-β1): decreased

COc1ccc(CCC2OC(=O)C3CCCCN3C(=O)C(=O)C(C)(C)COC(=O)C=CCCN(C)C(=O)CNC(=O)C(COC(C)(C)C)N(C)C(=O)C(Cc3ccc4ccccc4c3)NC(=O)C(C)N(C)C(=O)COc3cccc2c3)cc1OC (centres unmarked)
viability (A549; alamar blue; concentration not given): active

CC(=NN=c1[nH]c2cc(F)c(F)cc2n1C)c1ccc(F)cn1
inhibition (MDA-MB-231; cell invasion, Matrigel; 50 nM, 48 h; baseline: vehicle): ~40%

O=C(NNC(=S)Nc1cccc(C(F)(F)F)c1)c1cccn1-c1ccc(F)cc1
PSA secretion (LNCaP; ELISA; 24 h, with: DHT): inhibited

CC(=O)N1CCN(c2ccc(Nc3ncc4c(n3)N(C)C(=O)N(c3cc(NC(=O)c5cccc(C(F)(F)F)c5)ccc3C)C4)cn2)CC1
GI50 (Huh-7 (FGFR4 overexpressing); cell proliferation, CellTiter-Glo; 72 h): 21 ± 10 nM

CCCCCCCCCCCCCC[C@@H](O)[C@@H](O)[C@H](CO[C@H]1O[C@H](CO)[C@H](O)[C@H](O)[C@H]1O)NC(=O)CCCCCCCCCCc1ccc(C(F)(F)F)cc1
IL-4 secretion (human Vα24+ NKT cells; agonist, ELISA; 10 ng/mL, 24 h, unit not given, with: CD1d-transfected HeLa cells; baseline: α-GalCer): 0.87 ± 0.21

CC(=O)N1CCN(c2ccc(Nc3ncc4c(n3)N(C)C(=O)N(c3cc(NC(=O)c5ccc(CN6CCC(N(C)C)C6)c(C(F)(F)F)c5)ccc3C)C4)cn2)CC1 (centres unmarked)
GI50 (HepG2 (FGFR4 overexpressing); cell proliferation, CellTiter-Glo; 72 h): 76 ± 40 nM

Nc1ccc2cc(N)ncc2c1
mRNA level (LX-2; qPCR, item: ACTA2; concentration not given, with: TGF-β1): decreased

CCOc1cc(C(C)(C)C)ccc1C1=N[C@@H](c2ccc(Cl)cc2)[C@@H](c2ccc(Cl)cc2)N1C(=O)N1CCN(CC(=O)NCCOCCOCCOCCNC(=O)CN2CCN(C(=O)N3C(c4ccc(C(C)(C)C)cc4OCC)=N[C@H](c4ccc(Cl)cc4)[C@@H]3c3ccc(Cl)cc3)CC2=O)C(=O)C1
IC50 (A549; cell growth, CCK-8): 8300 ± 2200 nM

CCCCCCCCCCCCCC[C@@H](O)[C@@H](O)[C@H](CO[C@H]1O[C@H](CO)[C@H](O)[C@H](O)[C@H]1O)NC(=O)CCCCCCCCCCCCCCc1ccccc1
IFN-γ/IL-4 ratio (human Vα24+ NKT cells; agonist; 10 ng/mL, 24 h, with: CD1d-transfected HeLa cells; baseline: α-GalCer): 0.24 ± 0.03

C=CC(=O)Nc1cccc(N(C(=O)OCc2ccc(F)cc2)c2ccnc(Nc3ccn(C)n3)n2)c1
selectivity ratio (Ba/F3 EGFR insSVD or wild type; cell growth; baseline: insSVD EC50 over wild-type EC50): 1.8

C[C@@]12C3=C(C(=O)c4occ(c41)[C@H](O)[C@@H]1O[C@@H]12)[C@@H]1CCC(O)[C@@]1(C)CC3 (some centres unmarked)
ROS level (MDA-MB-231; DCFH-DA fluorescence; concentration not given, unit not given; baseline: untreated): 1.26

C=CC(=O)N1CCC(c2cc(Nc3cc4n(n3)CCOC4)c3ncnn3c2)C1 (single isomer, unassigned)
maximum inhibition (Ramos; calcium flux, FLIPR; 1 h preincubation, with: anti-IgM): 39.8%

CCOc1ccccc1Nc1nnc(SCC(=O)Nc2cc(F)ccc2F)s1
IL-2 secretion (co-cultured human PBMCs; MucilAir airway epithelium; 5 µM, 48 h, with: anti-CD3/CD28): 382 ± 18 pg/mL

O=C(N/N=C/c1ccc(Sc2ncccn2)s1)c1cccc(F)c1
GI50 (D458 medulloblastoma; cell growth): 6300 nM

Cc1cc(Nc2ncc3c(n2)N(C)C(=O)N(c2cc(NC(=O)c4cccc(C(F)(F)F)c4)ccc2C)C3)n(C)n1
GI50 (Huh-7 (FGFR4 overexpressing); cell proliferation, CellTiter-Glo; 72 h): 56 ± 30 nM

CC(C)CN(CC(=O)N(CC(=O)N(CC(=O)N(CC(=O)N(CC(=O)N(CC(=O)N(CC(N)=O)Cc1ccccc1)Cc1ccccc1)CC(C)C)Cc1ccccc1)Cc1ccccc1)CC(C)C)C(=O)CNCCCCN
RAGE surface level (THP-1 macrophages; confocal immunocytochemistry; 50 µM, 72 h, with: 2 ng/mL LPS; baseline: LPS alone): decreased

O=C(N/N=C/c1ccc(Sc2ncccn2)o1)c1cccc(F)c1
GI50 (D458 medulloblastoma; cell growth): 62000 nM

Excerpt of the above:
Cc1ccc(NC(=O)c2ccc(CN3CCC(N(C)C)C3)c(C(F)(F)F)c2)cc1N1Cc2cnc(Nc3cnn(C)c3)nc2N(C)C1=O (centres unmarked)
GI50 (Huh-7 (FGFR4 overexpressing); cell proliferation, CellTiter-Glo; 72 h): 21 ± 20 nM

CCOc1cc(C(C)(C)C)ccc1C1=N[C@@H](c2ccc(Cl)cc2)[C@@H](c2ccc(Cl)cc2)N1C(=O)N1CCN(CC(=O)NCCOCCOCCOCCNC(=O)CN2CCN(C(=O)N3C(c4ccc(C(C)(C)C)cc4OCC)=N[C@H](c4ccc(Cl)cc4)[C@@H]3c3ccc(Cl)cc3)CC2=O)C(=O)C1
IC50 (A549; cell growth, CCK-8): 8300 ± 2200 nM
